Results of several laboratories.
Parts stem from different laboratories: compare values within a part only. Changes are numbered by the printed parent chain.

Block 1 — method: protein-binding microarray; form: double-stranded DNA, one strand shown; sample: in vitro; tested at: not given; direction: higher = stronger binding
Target: Max-binding protein MNT, bHLH-zipper, MAX partner unstated (MNT, Homo sapiens, UniProt Q99583, residues 220-300)
Notes: k-mer, scored over probes, only values ≥0.25
Construct (chain): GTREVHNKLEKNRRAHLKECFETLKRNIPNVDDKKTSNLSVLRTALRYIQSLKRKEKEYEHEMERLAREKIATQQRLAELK
`ACACGTGC` has an E-score of 0.495.
`GAGCACAC` gave an E-score of 0.33.
For `CATGGCAG`, the E-score was 0.348.
`CCCCACGA` gave an E-score of 0.305.
The E-score of `CGCACGAC` is reported as 0.255.
`ACACGTTC` has an E-score of 0.332.
For `GGGCACGA`, the E-score was 0.261.
`GCGTTTCC` gave an E-score of 0.252.

Block 2 — target: UBE2D4 UBC core domain (UniProt Q9Y2X8); method: yeast two-hybrid; sample: yeast; notes: mostly zero background; relative to: not given; direction: higher = stronger interaction
B1: DTX1 RING domain (UniProt Q86Y01); chain QKVKNPPDEDCTICMERLVTASGYEGVLRHKGVRPELVGRLGRCGHMYHLLCLVAMYSNGNKDGSLQCPTCKAIYGEKTGTQ
B2: Ltn1 RING domain (UniProt Q6A009); chain VDKRFEGVEDCMICFSVIHGFNYSLPKKACRTCKKKFHSACLYKWFTSSNKSTCPLCRETFF
B3: RNF24 RING domain (UniProt Q9Y225); chain KVKELNLHELCAVCLEDFKPRDELGICPCKHAFHRKCLIKWLEVRKVCPLCNMPVLQLAQLH
Construct (chain): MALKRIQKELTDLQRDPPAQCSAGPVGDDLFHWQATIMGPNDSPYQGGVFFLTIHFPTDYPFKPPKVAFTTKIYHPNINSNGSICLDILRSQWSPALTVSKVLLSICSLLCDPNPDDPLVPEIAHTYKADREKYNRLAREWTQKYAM
Under “lacZ reporter activity”, `B1 (DTX1 RING domain)` is recorded as 11800.
`QLRRLQEERTCKVCLDRAVSIVFVPCGHLVCAECAPGLQLCPICRAPVRSRVRTF (BIRC7 RING domain (UniProt Q96CA5))`: “lacZ reporter activity” 0.
For `B2 (Ltn1 RING domain)`, “lacZ reporter activity” read 0.
Under “lacZ reporter activity”, `B3 (RNF24 RING domain)` is recorded as 0.

Block 3 — method: RNA Bind-n-Seq; form: RNA; sample: in vitro; tested at: not given; notes: 4-mer, random 30-nt RNA, single round; added: RocA, ADP, phosphate; relative to: input library; direction: higher = stronger binding
Target: Eukaryotic initiation factor 4A-I (EIF4A1, Homo sapiens, UniProt P60842, residues 1-406, full length assumed)
Sequence of UniProt P60842 (whole entry, looked up): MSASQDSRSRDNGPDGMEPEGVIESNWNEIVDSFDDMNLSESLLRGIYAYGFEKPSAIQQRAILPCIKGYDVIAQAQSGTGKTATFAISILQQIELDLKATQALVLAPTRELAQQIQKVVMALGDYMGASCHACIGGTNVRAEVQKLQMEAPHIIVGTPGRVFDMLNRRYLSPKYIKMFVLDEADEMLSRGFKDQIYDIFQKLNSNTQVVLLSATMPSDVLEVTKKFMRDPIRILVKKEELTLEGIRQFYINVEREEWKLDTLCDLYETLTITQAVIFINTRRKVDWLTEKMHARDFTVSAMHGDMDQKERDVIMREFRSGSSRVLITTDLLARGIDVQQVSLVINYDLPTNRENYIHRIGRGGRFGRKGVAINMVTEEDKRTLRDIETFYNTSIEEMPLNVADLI
`UUGC` has a 4-mer enrichment of 0.688 fold.
For `UCGG`, the 4-mer enrichment was 0.833 fold.
The 4-mer enrichment of `GGGC` is reported as 0.832 fold.
For `AUUG`, the 4-mer enrichment was 1.05 fold.
For `AUGA`, the 4-mer enrichment was 1.46 fold.
`UUAC` gave a 4-mer enrichment of 0.67 fold.
`AAUU` gave a 4-mer enrichment of 1.05 fold.
The 4-mer enrichment of `GGGG` is reported as 1.22 fold.

Block 4 — Substance: IMMT (Homo sapiens, UniProt Q16891); method: cross-linking MS; sample: cell fractions; added: DSSO
It gave “K211 to S184” for cross-linked residues (SESTD1 (Homo sapiens, UniProt Q86VW0)).
MICOS10 (Homo sapiens, UniProt Q5TGZ0) — cross-linked residues: “K726 to K74”.
APOO (Homo sapiens, UniProt Q9BUR5) — cross-linked residues: “K714 to K32”.
EDRF1 (Homo sapiens, UniProt Q3B7T1) — cross-linked residues: “K110 to K196”.

Block 5 — target: CCNE2, cyclin fold, Cln2 fusion (human); method: yeast growth competition, sequencing; sample: yeast; notes: strong parent motif; relative to: not given; direction: higher = stronger binding; starting sequence: viral docking peptide; YKVKRRLVFGADD
Under “normalised enrichment score”, `G10M` is recorded as 4.26.
For `K4W`, “normalised enrichment score” read 1.02.
`G10R`: “normalised enrichment score” 4.47.
`A11I`: “normalised enrichment score” 5.59.
For `G10Q`, “normalised enrichment score” read 4.95.
`L7D` — result for “normalised enrichment score”: 0.214.
For `A11C`, “normalised enrichment score” read 5.68.
`F9N`: “normalised enrichment score” 0.434.
`L7E` — result for “normalised enrichment score”: 0.565.
For `G10T`, “normalised enrichment score” read 5.27.
Under “normalised enrichment score”, `L7R` is recorded as 0.844.
Under “normalised enrichment score”, `D12K` is recorded as 4.81.
Under “normalised enrichment score”, `R5S` is recorded as 0.543.
Under “normalised enrichment score”, `L7M` is recorded as 0.674.
`G10W` — result for “normalised enrichment score”: 3.28.
Under “normalised enrichment score”, `A11Q` is recorded as 5.46.
Under “normalised enrichment score”, `A11V` is recorded as 5.55.
Under “normalised enrichment score”, `D12C` is recorded as 5.35.
`D13A` — result for “normalised enrichment score”: 4.55.
`V8E`: “normalised enrichment score” 5.38.
For `R6C`, “normalised enrichment score” read 2.03.
Under “normalised enrichment score”, `G10V` is recorded as 4.76.
`R6I` — result for “normalised enrichment score”: 3.29.
`F9W` — result for “normalised enrichment score”: 2.83.
`R6F` — result for “normalised enrichment score”: 0.942.

Block 6 — effect on: peptide-MHC binding; form: peptide; tested at: concentration not given
Target: HLA class I histocompatibility antigen, A alpha chain, allele A*25:01 (Homo sapiens, UniProt P04439)
Under binding, `SLLERGQQLGV` is recorded as “inactive”.
For `MQGKDFNHL`, binding read “inactive”.
`MSADNAGAL` — result for binding: “inactive”.
`RLLRFTGLF`: binding “inactive”.

Repeated from above (block 6):
`RLLRFTGLF`: binding “inactive”.
Under binding, `SLLERGQQLGV` is recorded as “inactive”.
For `MQGKDFNHL`, binding read “inactive”.
`MSADNAGAL` — result for binding: “inactive”.
